Measurements of several laboratories.
Every numbered part comes from another study and shows a few of its results, in no order. Changes are numbered by the printed parent chain.

Set 1
Target: Interferon regulatory factor 7, full length, phosphomimetic (IRF7, Homo sapiens, UniProt Q92985, residues 1-503, S101K/S471D/S472D/S475D/S476D/S477D/S483D/S484D/S487D)
Sequence of UniProt Q92985 (whole entry, unmodified, looked up): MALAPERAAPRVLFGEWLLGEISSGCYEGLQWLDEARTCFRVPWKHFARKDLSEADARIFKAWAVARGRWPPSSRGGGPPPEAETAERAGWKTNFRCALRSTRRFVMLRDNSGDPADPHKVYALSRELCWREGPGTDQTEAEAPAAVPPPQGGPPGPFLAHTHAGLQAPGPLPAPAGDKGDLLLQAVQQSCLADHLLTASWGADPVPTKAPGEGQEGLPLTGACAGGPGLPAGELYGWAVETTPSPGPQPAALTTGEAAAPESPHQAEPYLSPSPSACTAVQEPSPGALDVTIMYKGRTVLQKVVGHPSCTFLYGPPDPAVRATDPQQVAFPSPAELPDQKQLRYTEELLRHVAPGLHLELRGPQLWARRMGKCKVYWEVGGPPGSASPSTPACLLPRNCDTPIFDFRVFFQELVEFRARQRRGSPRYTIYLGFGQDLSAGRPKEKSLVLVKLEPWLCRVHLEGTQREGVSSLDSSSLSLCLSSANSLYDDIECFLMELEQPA
Method: protein-binding microarray
Form: double-stranded DNA, one strand shown
Matrix: in vitro
Tested at: 250 nM
Setting: 60-bp whole probe
With: salmon DNA 0.4 mg/ml
Baseline: random background probes
Direction: higher = stronger binding
Constant ends, left off below: GCCTAGCAC … GTCTTGATTCGCTTGACGCTGCTG
`ACACGGCTCTAAACTCATGTAGTGCTA` gave a log fluorescence of -0.417 z-score.
`GCCCATCTCTGCTCCTTCTGGTGCTAG` has a log fluorescence of 0.618 z-score.
`ATAGGTTTCGGGTTTCGGTTAGTGCTA` has a log fluorescence of 12.7 z-score.
For `TTAGGACTGGGGTTTCGTTTAGTGCTA`, the log fluorescence was 5.23 z-score.
For `GACGATATCAGTCTGGAGACGTGCTAG`, the log fluorescence was -0.606 z-score.
`TTAGGTATCGGGTATCGGTCAGTGCTA` gave a log fluorescence of 0.705 z-score.
With `GGTTTTCTAATGTTTTTTAAAGTGCTA` the log fluorescence was 3.38 z-score.
The log fluorescence of `TTAGGTTTCCTTCTCCCTTAGTGCTAG` is reported as 2.33 z-score.
The log fluorescence of `TTAGGTCTCGGTTTCCGTTAGTGCTAG` is reported as 8.44 z-score.
With `TATAGGTTGTTTCTAATATTGTGCTAG` the log fluorescence was 0.239 z-score.

Set 2
Target: CCNE1, cyclin fold, Cln2 fusion (human)
Method: yeast growth competition, sequencing
Matrix: yeast
Setting: strong parent motif
Baseline: not given
Direction: higher = stronger binding
Starting sequence: RBL1 docking peptide (human); GSAKRRLFGEDPP; partner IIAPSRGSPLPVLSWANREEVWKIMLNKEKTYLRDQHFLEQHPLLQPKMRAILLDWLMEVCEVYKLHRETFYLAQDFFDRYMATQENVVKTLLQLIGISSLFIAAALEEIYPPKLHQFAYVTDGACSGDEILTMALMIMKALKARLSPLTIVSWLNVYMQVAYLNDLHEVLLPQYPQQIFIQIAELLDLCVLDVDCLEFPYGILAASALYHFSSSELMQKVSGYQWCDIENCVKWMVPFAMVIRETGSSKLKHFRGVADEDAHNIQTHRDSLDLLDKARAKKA
`K4G` — result for “normalised enrichment score”: 0.512.
`E10F` — result for “normalised enrichment score”: 4.63.
`P13W`: “normalised enrichment score” 6.07.
Under “normalised enrichment score”, `R5S` is recorded as -0.0853.
Under “normalised enrichment score”, `L7T` is recorded as 0.086.
`D11M`: “normalised enrichment score” 4.31.
For `S2A`, “normalised enrichment score” read 5.24.
Under “normalised enrichment score”, `R6S` is recorded as 2.19.
For `S2V`, “normalised enrichment score” read 4.35.
For `K4Q`, “normalised enrichment score” read 1.6.
Under “normalised enrichment score”, `E10G` is recorded as 4.4.

Set 3
Target: Ras GTPase-activating protein-binding protein 1, full length (G3BP1, Homo sapiens, UniProt Q13283)
Sequence of UniProt Q13283 (whole entry, looked up): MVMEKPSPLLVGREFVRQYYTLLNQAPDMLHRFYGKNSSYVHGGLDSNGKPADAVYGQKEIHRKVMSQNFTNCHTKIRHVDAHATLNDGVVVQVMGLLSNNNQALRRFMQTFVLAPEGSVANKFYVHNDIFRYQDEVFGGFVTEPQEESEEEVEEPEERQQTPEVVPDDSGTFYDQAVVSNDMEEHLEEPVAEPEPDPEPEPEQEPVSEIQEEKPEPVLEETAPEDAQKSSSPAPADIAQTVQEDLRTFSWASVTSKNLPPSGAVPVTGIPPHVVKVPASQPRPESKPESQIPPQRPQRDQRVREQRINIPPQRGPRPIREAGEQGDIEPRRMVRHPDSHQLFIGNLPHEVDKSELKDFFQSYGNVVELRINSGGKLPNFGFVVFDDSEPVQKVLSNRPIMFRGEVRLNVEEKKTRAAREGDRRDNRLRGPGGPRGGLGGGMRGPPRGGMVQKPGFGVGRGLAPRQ
Method: RNA Bind-n-Seq
Form: RNA
Matrix: in vitro
Tested at: 200 nM
Setting: whole 134-nt RNA, ends assumed
With: 150 mM LiCl
Baseline: input library
Direction: higher = stronger binding
All molecules: 7-deaza-guanosine replaces G
For `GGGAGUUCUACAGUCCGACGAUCUCAAGUCCUGUGCUACACAUCGUAUGUACCGAAUCGGGAAAGGGAGGGAAAGGGAAAGUAUUAUGUUACGCCGUUCGGAUCUGCACUUCCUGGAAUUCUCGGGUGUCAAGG`, the log2 enrichment was -0.674.
`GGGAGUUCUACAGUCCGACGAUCUUGACCUAGAGGAUGAGACCAUUGAUGCCGAGGUCAUGAACUCUCUAGCAGUUACUAUGGAUGACUUCCGGGUAAGGACCACACCCGUGCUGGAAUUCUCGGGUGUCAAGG` gave a log2 enrichment of -1.17.
`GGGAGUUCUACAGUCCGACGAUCUCCUGUGCUACACAUCGUAUGUACCGAAUCGGGGAAAAAAAGGGGAAAGGGGAAAGGGGAAAGUAUUAUGUUACGCCGUUCGGAUCUGCAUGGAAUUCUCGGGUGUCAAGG` gave a log2 enrichment of 0.269.
The log2 enrichment of `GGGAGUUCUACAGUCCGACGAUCCUCAAGUCCUGUGCUACACAUCGUAUGUACCGAAUCGGGUUUGGGAGGGAGGGAAAGUAUUAUGUUACGCCGUUCGGAUCUGCACUUCCAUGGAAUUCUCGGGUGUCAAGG` is reported as -0.397.
For `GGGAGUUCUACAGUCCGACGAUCUGGCAGGUGGAUUUUGUUUAUUUUUUUAGCUCAUUUCCAGGGGUGGGAAUUUUUUUUUAAUAUGUGUCAUGAAUAAAGUUGUUUUUGAAAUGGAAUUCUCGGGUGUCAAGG`, the log2 enrichment was 0.209.

Other studies, line by line
With `PhoQ, residues 284 288 289 292 302 303 SLSVQF` the fold induction was 12.5 (PhoP, residues 12 14 15 18 19 HLGGL (Escherichia coli, UniProt P23836); Sort-seq, item: YFP reporter; E. coli; PhoQ-PhoP variant library, with: 10 µM Mg2+; baseline: high Mg2+ state, higher = stronger signaling).

Excerpt of the above (set 1):
`GCCCATCTCTGCTCCTTCTGGTGCTAG` has a log fluorescence of 0.618 z-score.
`ATAGGTTTCGGGTTTCGGTTAGTGCTA` has a log fluorescence of 12.7 z-score.
For `TTAGGACTGGGGTTTCGTTTAGTGCTA`, the log fluorescence was 5.23 z-score.
For `GACGATATCAGTCTGGAGACGTGCTAG`, the log fluorescence was -0.606 z-score.
